Published values gathered from unrelated publications.
A part holds a random share of what one study measured. Changes are numbered by the printed parent chain.

Series 1 — technique: protein-binding microarray; form: double-stranded DNA, one strand shown; matrix: in vitro; concentration: 250 nM; notes: 60-bp whole probe; together with: salmon DNA 0.4 mg/ml; relative to: random background probes; direction: higher = stronger binding; all sequences stand within: GCCTAGCAC … GTCTTGATTCGCTTGACGCTGCTG
Target: Interferon regulatory factor 7, full length, phosphomimetic (IRF7, Homo sapiens, UniProt Q92985, residues 1-503, S101K/S471D/S472D/S475D/S476D/S477D/S483D/S484D/S487D)
Target sequence (chain): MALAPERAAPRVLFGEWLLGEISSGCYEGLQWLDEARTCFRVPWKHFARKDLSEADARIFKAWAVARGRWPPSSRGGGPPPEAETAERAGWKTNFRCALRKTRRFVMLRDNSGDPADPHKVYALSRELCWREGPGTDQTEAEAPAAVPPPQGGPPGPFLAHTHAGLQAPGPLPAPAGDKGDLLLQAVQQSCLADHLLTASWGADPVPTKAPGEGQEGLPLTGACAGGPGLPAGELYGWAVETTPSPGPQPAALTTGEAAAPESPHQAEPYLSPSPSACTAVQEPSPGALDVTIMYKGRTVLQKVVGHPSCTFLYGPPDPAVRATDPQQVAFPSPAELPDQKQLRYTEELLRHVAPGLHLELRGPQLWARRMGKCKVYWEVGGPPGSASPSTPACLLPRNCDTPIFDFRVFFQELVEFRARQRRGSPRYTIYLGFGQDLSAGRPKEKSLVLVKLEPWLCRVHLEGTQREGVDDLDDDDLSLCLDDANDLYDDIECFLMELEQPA
Sequence | log fluorescence [z-score]
TTAGTTTTCATTATTGTGTCGTGCTAG | 1.6
CACGATCTCAGTCTCGAGACGTGCTAG | 0.678
TTTGCTTTCTTTTTGCACTCGTGCTAG | 1.37
TTAGGCCTGCTTCTCCTTTAGTGCTAG | 1.04
TTAGGACTGTACTATCGGTTAGTGCTA | 0.172
AGACACCCCTTTGGTGCCACGTGCTAG | 0.0149
TCAAAGCTTCCTCTCTGACTGTGCTAG | 0.00142
GACGGTTTCGGGACTGGGCACGTGCTA | 3.72
GACGGTATCCACTATCGGGACGTGCTA | 0.0333
TCCCTTTTCATGCTCTTATAGTGCTAG | 2.37
TGAGTAATTACATAATTACGGTGCTAG | -0.38
TGGACTGTGTGTTTGAGTCTGTGCTAG | -0.416
TCAGTTATTAAATTTTCAACTGTGCTA | 0.319
GACAGTTTCGACTTTCGGGACGTGCTA | 10.2
GACGATATCGACTATCGGGACGTGCTA | -0.125
GACGGACTGGGTCGCGGGACGTGCTAG | -0.235
TTAGAAGTGAGTCTCGATTAGTGCTAG | 0.848

Series 2 — technique: DHFR PCA, deep sequencing; matrix: yeast; together with: (+)-ABA 1.4 µM; relative to: wild-type fitted maximum; direction: higher = stronger binding
Target: ABI1, truncated, D143A, DHFR fusion (Arabidopsis thaliana)
Notes: methotrexate growth selection, single substitutions
Parent: PYL1, truncated, DHFR fusion (Arabidopsis thaliana); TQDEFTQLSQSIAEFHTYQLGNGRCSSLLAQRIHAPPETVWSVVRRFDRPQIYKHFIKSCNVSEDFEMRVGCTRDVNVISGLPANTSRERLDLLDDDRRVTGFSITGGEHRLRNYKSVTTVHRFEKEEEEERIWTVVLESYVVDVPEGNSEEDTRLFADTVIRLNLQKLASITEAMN
Variant | relative binding score
D159Q | -14.6%
V78G | 1.05%
S42H | 25.7%
I33K | -12.3%
S87R | 36.8%
P50W | 0.473%
S80E | -6.99%
D153I | -16.3%
V70Q | 7.87%
T6K | 66.4%
Q167G | 38.6%
A158W | -9.3%
H16D | 6.14%
K54V | -0.396%
L94E | 6.01%
V118K | 21.6%
T106Q | 27.8%
E131G | 82.4%
F157E | 4.19%
I172L | 40.4%

Series 3 — technique: EMSA with sequencing; form: double-stranded DNA, one strand shown; matrix: in vitro; concentration: 10 and 20 nM; relative to: negative control set to 0; direction: higher = stronger binding
Target: Hepatocyte nuclear factor 3-alpha (Foxa1, Mus musculus, UniProt P35582, residues 1-468, full length assumed)
Sequence of UniProt P35582 (whole entry, looked up): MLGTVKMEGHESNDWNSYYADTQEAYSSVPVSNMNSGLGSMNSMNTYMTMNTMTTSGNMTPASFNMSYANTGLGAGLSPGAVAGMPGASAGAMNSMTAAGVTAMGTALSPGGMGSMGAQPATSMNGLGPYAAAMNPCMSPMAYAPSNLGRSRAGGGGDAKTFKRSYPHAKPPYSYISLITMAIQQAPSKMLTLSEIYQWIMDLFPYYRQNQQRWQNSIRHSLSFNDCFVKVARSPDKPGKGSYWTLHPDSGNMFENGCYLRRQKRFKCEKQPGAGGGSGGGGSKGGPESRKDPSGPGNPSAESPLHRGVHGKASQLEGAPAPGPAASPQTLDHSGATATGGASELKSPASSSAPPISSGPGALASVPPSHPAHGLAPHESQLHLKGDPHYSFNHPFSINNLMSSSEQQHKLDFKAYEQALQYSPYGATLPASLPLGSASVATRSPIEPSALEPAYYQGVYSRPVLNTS
Notes: whole designed probe, mean of two concentrations, ends assumed
All sequences stand within: GTGAGCGGTGCCCATTGATGGGGAAC … TTTCACTGGGATCGTGGGGAC
Sequence | normalised bound fraction [ratio]
CCCTGATTGCTATGTTCTAGAAAGTTTTAACCGAAAGTACCAGCTTTACATGTGTATGTGAATCAAACATGTAAACATCCACCTCTCTTTGTGTAATCTAGGAAAAATGGCAAAATATTTTCAGAGAATTTTTCTCTCCCATTTAAGTTTGAAGTTTCAACAAGCATATTATACTTTGAGAGAGAAAAGCAAA | 0.131
ATCCACGAACCTGGCCCTGTCTGGTAACCACAGTGAACCATCGCAAGATACAGCACTATGTGTAATGACTCACCCCAGTTGGGCTGGAACCAGTGTTGACACATCACATCCTCAGGGACACGGAAGTGTACTTGTTTTTGGAGAGGGACTAGACCTTCATCCTTGAGGTGAAGAAGATTTTCTCTCCAGGGTG | 0.119
CATCAAGGGTGTGTGATGAATGTTATGTCTGTGATTATGCAACAGGAGATGGGACTTTCCATCTTTCTAGCAGGCTTTCTCGACTCTCTCCCTAAATGACTTTGTTGATGTAAGCCTCCATGTGGTAAAGCCCTTGTGGCGGGAACTCAGGGCAGCCTCCGGCAACAGCCAGCAGGGAGCTGGGACTCAACAA | -0.0311
CTAAGAGTTGGCAGATCATGCAACAGCCCGGGTCCCTGAATGGCCATGTAGAACATGATCTCTACCCTGACCTATTTTAGACAGTACAATTAAATAATCTAGCAGACTTTTGTAGTAGAAAATCCCTGGAATTTGGGGTTTATTTATTACTAAAGAATAGCTTTGCATCTGGCCCTTGTTTATCTGTCATTTA | 0.0533
TCTTGTCCTCCCCAGCCACTCTGCAAGGGAGTGGAAGGCGTCTACTACACGTCAGCATCCCTCTTCCTCGGGGCGGGGGTGCACCTTGGAAGTGCAATCTTGTCTTATTTATATATGAATGAAGTAATAGATAAGAAGCAATGCCCTCCCAGGAATCACACTGTGACTTCTACCCTTGGGGAGCGGGCAGAGT | 0.0659
AGATAAAGAATAAGACCTAATATATTTCATATTGTCCTTGAAGGTGAGGAGAGAGGAAATGGAGTGGAGCCATTGTTTTAAGGATGAATATGGGTAAACATTTTCTGGAACTGATACATGACTGTGTGAGAAGAAAAACTGAGTCATTGTGCCTTGGTGACAATCAATCCATCTCCCATGTTTCAGACAACCT | 0.0496
CAGTACTTAATAAGTACAAAAAAGTCTATAGCGACACTATTTATAATTTTAAAAATGATTGAAGTCAATTAACATTTAAGTGTTAAAAAGAAAGTAATCTACCCAAATATACACAAACAGTAGACTGCTCTGGCTTGCATACAGAGAGGTCCATTGCCCTTTTGGGTGGGCCTAAGAAGCACTTCTGGGGAGA | 0.0875

Series 4 — technique: RNA Bind-n-Seq; form: RNA; matrix: in vitro; concentration: 100 nM; relative to: input RNA pool; direction: higher = stronger binding
Target: RING finger protein unkempt homolog, zinc fingers 1-6, SBP tag (UNK, Homo sapiens, UniProt Q9C0B0, residues 30-357)
Sequence of UniProt Q9C0B0 (30-357, looked up): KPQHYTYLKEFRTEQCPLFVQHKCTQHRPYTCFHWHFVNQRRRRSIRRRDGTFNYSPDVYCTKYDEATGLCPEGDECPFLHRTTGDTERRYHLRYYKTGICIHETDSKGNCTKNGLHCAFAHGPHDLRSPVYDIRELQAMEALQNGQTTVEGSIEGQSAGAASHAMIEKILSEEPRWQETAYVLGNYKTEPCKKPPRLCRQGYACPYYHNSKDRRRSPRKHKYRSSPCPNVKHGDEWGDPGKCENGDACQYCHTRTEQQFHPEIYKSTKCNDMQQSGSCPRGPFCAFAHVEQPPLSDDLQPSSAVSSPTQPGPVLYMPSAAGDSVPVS
Notes: RNA with constant flanks, vertebrate orthologous sites, ends assumed
All sequences stand within: GGGAGUUCUACAGUCCGACGAUC … CAACAGAGGAUUGAGCAUCA
Sequence | bound/input enrichment [ratio]
UACCUUUUGUAGGCCAAAUACCUUCCUUCCACUGCUCUGCCAACUGGAAGCACAGACAACUAGAAUUUCAUUUAUUUUGUUUAAAAAAAUCGAUUUCUUGUAACAUCCAAUAGGAAUGCU | 0.786
AAUUUUUUAAUUUUUUUUAUUUUUUAUUUUCAUUUUUGUUUGGGGAGGGAGAAAAGUUCUUAGCACAAAUGUUUUACAUAAUUUGUACCAAAAAAAAAAAAAAAGGAAACAUAAGAAACG | 1.61
AAUGUGUUUUUAGUUAGUCUUUAGCACAAAACUACCCCCGAUUGUGUUAGAUUUAAAAAUUAGUAGAUUAAUUUCUCUCUGUUGUAUUGCUUUCAUUAUUGAAAAUAAAUAGAACUUUGU | 0.97
UUCAGGCGCAAUUGACUGGUUCACAGCAUUCCUUACAUAGUUAUCUGUCAAAUGCAAGUUUAGGUAAUUUUCAGGAAACAUCCAAGCAGUCAUCUUUAUCCUGUAGUACAAUUGGAGAUU | 0.898
CUCAUUUCCAGGUUGGCUCUAGUGGAAAAGUCAUAGGAAUUGACCACAUUAAAGAACUAGUAGAUGACUCAAUAAAUAAUGUCAGAAAGGACGAUCCAAUGCUUUUGUCUUCAGGGAGAG | 1.19
CAGCCAAUUCUCUUAUUGGACGAGCAGCCCACAUUGCGGUUUUGGACUCUGAAGUAUUUUUGGAAAAGUUCUUUCUUGUUGCUGGUCUCCGAUAUUUCCAAUAGAAGGAAAGCACUGCCA | 0.474
AUUUAGAAUGUUAAUAAAUUGCUCUGAGUUUCCUCAAGUCCAUUUUGUAAGAUCAGACCAUAGGUGGGCGUUGUUUCUUUUAAGUUUGUGUACUGUGUCCAAUGUUACAUUUUUAGAAGU | 2.52
ACCCUGGUUGCUUUUUAUCACCUCAGUGAGGUAAGGUCUCCCUUGGCAUGUGGUUGGUUCUAGCGCCAUCAUCCCUAAUCCGUCUUUCCACACUUCCUUGCAUUUCUCCCACACAUAGUC | 0.904
AUCUAUCUCCGUAAUAACCUGAGAUUUUCAAAGACAGGUUUUUUUUUUUUUUUUUUACAGUUUAGUACUUGGUUUCUACGAGGAGGACUAAACUCAUGCUUAUAGCUACGUGUGGUCUCC | 1.45
UUCGUUGUACUGCAAAAUCAUCCUCGCUUUAAGCUAGCCGCCGUGAUUACUAGUCUGUGCUAACAGAAUCAUUUACUACUACCUUUUAAUUAUGUGCUUUGUCUGAUACCUGAAACCAGU | 1.22
GGUUGAUGUUCUGAAGAACCACUUGGUAAAAGAAGGUCGAGUAGAUGAAGAAAUUGCGCUUAGAAUUAUCAAUGAGGGUGCUGCCAUCCUUCGGAGAGAGAAAACCAUGAUAGAAGUAGA | 0.585

For quick reference, copied from above (series 2):
Variant | relative binding score
D159Q | -14.6%
V78G | 1.05%
S42H | 25.7%
I33K | -12.3%
S87R | 36.8%
P50W | 0.473%
S80E | -6.99%
